# Measurements collected from several papers.
# Lines come from different studies, so protocols differ. Numbers after ± are the reported error.
# UniProt Q8VD00, sequence (whole entry, looked up): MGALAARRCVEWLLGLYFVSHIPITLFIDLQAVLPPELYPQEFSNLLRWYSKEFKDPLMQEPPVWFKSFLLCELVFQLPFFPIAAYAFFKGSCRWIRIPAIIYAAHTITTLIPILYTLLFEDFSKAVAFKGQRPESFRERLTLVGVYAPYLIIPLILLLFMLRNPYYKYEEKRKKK
# UniProt P02730, sequence (whole entry, looked up): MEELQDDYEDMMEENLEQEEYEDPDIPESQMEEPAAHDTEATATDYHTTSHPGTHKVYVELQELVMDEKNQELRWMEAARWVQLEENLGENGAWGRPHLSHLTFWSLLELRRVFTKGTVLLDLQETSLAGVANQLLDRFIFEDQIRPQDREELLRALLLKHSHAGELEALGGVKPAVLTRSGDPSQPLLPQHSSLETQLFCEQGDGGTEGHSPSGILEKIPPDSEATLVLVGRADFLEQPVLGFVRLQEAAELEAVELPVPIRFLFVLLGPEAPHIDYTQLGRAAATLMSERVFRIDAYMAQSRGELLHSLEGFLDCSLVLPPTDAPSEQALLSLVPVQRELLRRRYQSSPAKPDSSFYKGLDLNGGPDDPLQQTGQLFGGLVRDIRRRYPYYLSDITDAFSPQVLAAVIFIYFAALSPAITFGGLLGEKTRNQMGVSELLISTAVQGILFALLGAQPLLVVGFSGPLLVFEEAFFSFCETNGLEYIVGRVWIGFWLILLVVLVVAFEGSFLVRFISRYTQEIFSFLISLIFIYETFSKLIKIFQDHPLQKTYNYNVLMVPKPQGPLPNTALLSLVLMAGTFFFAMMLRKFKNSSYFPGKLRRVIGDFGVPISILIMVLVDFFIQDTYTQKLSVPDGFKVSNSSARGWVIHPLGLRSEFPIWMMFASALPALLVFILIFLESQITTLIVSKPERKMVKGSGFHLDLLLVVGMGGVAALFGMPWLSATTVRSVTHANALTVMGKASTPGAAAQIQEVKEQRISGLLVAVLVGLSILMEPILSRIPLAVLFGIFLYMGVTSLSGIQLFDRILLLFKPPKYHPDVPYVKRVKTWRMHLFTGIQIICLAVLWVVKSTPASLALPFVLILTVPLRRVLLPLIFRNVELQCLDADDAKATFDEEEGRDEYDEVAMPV
Structure (SMILES),target or system,test,system,conditions,how to read,measurement,result
N=C(N)c1ccc(-c2ccc(-c3cccs3)o2)c(F)c1,Salmonella enterica,,TA1535,"20 µM, 48 h, with: sodium azide after pre-exposure",baseline: sodium azide alone,mutant frequency,24%
CN1CC[C@@]23CCCC[C@@H]2[C@@H]1Cc1ccc(O)cc13,,,"Wistar rat, both sexes, plasma","oral, 5 mg/kg DEM, DEM 2 h after pretreatment, with: TCE 400 mg/kg single pretreatment",,Cmax,26.5 ± 14.7 ng/mL
NCC1(CC(=O)O)CCCCC1,,in situ brain perfusion,"CF-1 mouse, wild type, male","1 µM, pH 7.4",,brain uptake clearance Kin,15 mL/100 g/min
N[C@@]1(c2ccccc2Cl)CCC[C@@H](O)C1=O,,,"Wistar rat, plasma","intraperitoneal, 40 mg/kg, up to 48 h, single dose",,plasma concentration,≥ 5 ng/mL
COc1ccc2c(c1)[C@]13CCCC[C@@H]1[C@H](C2)N(C)CC3,,,"Wistar rat, both sexes, plasma","oral, 5 mg/kg, 2 h after pretreatment, with: single quinidine 2.5 mg/kg",,MRT(0-inf),3.44 ± 1.19 h
CCCCCCCCCCC(=O)O[C@H]1CC[C@H]2[C@@H]3CCC4=CC(=O)CC[C@]4(C)[C@H]3CC[C@]12C,,,human blood,"600 ng/mL, 30 min, 4 °C, NaF 5 mg/mL, K2 oxalate 4 mg/mL",,testosterone concentration,438 ng/dL
N=C(N)NCCC[C@@H]1NC(=O)[C@H](CCCCNC(=O)[C@H](CC(=O)O)NC(=O)[C@H](CC(=O)O)NC(=O)[C@H](CC(=O)O)NC(=O)CC[C@H](NC(=O)CCOCCOCCOCCOCCNC(=O)c2ccc(NN)nc2)C(=O)N[C@@H](CC(=O)O)C(=O)N[C@@H](CC(=O)O)C(=O)N[C@@H](CC(=O)O)C(=O)NCCCC[C@@H]2NC(=O)[C@@H](Cc3ccccc3)NC(=O)[C@H](CC(=O)O)NC(=O)CNC(=O)[C@H](CCCNC(=N)N)NC2=O)NC(=O)[C@@H](Cc2ccccc2)NC(=O)[C@H](CC(=O)O)NC(=O)CNC1=O [technetium-99m labelled],,,"U-87 MG xenograft athymic nude mice, lungs","intravenous, 60 min, with: RGD2 14 mg/kg co-injected",,tissue uptake,0.29 ± 0.01 %ID/g
CN(C)C[C@H]1CCCC[C@]1(O)c1cccc(O)c1,,visual analog scale,healthy non-drug abusers,"oral, 20 mg, unit not given",baseline: placebo,take drug again,-6
N[C@@]1(c2ccccc2Cl)CC[C@@H](O)CC1=O,,,"female CD-1 mice, plasma","intraperitoneal, 5 mg/kg",,dose-normalized Cmax,133 ± 7.8 ng/mL per mg/kg
CC1N=C(c2ccccc2F)c2cc(N(C)C)ccc2NC1=O (stereo not drawn),,shake flask,PBS,"24 h, pH 7.4",,solubility,186 µM
CN[C@@](C)(C[18F])C(=O)O,MDA-MB-468 tumour model,,"host not given, bone","30 min, tumour-bearing",,tracer uptake,1.9 %ID/g
C=C1C[C@@H]2[C@H](CC[C@]3(C)C(=O)CC[C@@H]23)[C@@]2(C)C=CC(=O)C=C12,,LC-MS/MS,"postmenopausal breast cancer women, plasma","oral, 25 mg/day, 2 h, AST or ALT over 40",,median plasma concentration,11 ng/mL
CCOC(=O)c1cncn1[C@@H](C)c1ccccc1,,"serum corticosterone, inhibitor",Sprague-Dawley rat,"intravenous, 15 min, 50% reduction, with: ACTH1-24",,ID50,10.7 ± 1.2 mg/kg
CC(C)=C1C/C=C(\C)CC/C=C(\C)CC1=O,,"cell viability, MTT",mouse lung slices,48 h,,CC50,135 µM
CN1C(=O)CC(=O)N(c2ccccc2)c2cc(Cl)ccc21,,,"mouse wild-type and Scn1a+/−, plasma","intraperitoneal, 10 mg/kg, single dose",,Cmax,2400 ng/mL
"C=CCN1CCC2(C)c3cc(O)ccc3CC1C2C (single isomer, unassigned; (+))","Tmem97 (Mus musculus, UniProt Q8VD00)","ligand displacement, radioligand",,cell membranes,,Ki,19 µM
Cn1nnc(-c2ccc(-c3ccc(N4C[C@H](CO)OC4=O)cc3F)cn2)n1,,,THP-1 caseum surrogate,"5 µM, 4 h, 37 °C",,fraction unbound,0.137 ± 0.027
CCCCN1C(=O)C(C=CC=CC=C2C(=O)N(c3ccc(S(=O)(=O)O)cc3)N=C2C)C(=O)N(CCCC)C1=O,"SLC4A1 (Homo sapiens, UniProt P02730)","chloride exchange, 36Cl flux, measured: inward-facing unloaded transporter",,"0 °C, minimum estimate, equilibrium binding",,Ki,≥ 0.046 µM
CCCCCc1cc(O)c2c(c1)OC(C)(C)[C@@H]1CCC(C)=C[C@@H]21,,catalepsy (ring immobility),"ICR mice, male",intraperitoneal,,ED50,3.85 mg/kg
N[C@@]1(c2ccccc2Cl)C[C@H](O)CCC1=O,,,"female CD-1 mice, plasma","intraperitoneal, 5 mg/kg",,dose-normalized Cmax,505 ± 19 ng/mL per mg/kg
CC(=O)NNC(=O)c1ccncc1,,,rabbit plasma,"5 µM, 4 h, 37 °C",,fraction unbound,89.4 ± 4.7%
CCCC(C(=O)c1ccc(O)c(OC)c1)N1CCCC1 (stereo not drawn),,,human plasma,"750 µg/L, 24 h, High QC, room temperature",baseline: freshly fortified plasma,stability,4.8 % difference
CN1C(=O)CC(=O)N(c2ccccc2)c2cc(Cl)ccc21,,,"CF-1 mouse, brain","intraperitoneal, 17 mg/kg",,Cmax,5.93 ng/mg
CCCC(C(=O)c1ccc(O)c(O)c1)N1CCCC1 (stereo not drawn),,,human plasma,"750 µg/L, 24 h, High QC, room temperature",baseline: freshly fortified plasma,stability,4.2 % difference
CSCC[C@@H]1NC(=O)[C@H](CC(=O)O)NC(=O)CNC(=O)[C@H](CCCNC(=N)N)NC(=O)[C@H](C)NC(=O)[C@H](CCC(=O)O)NC(=O)[C@H](CCCNC(=N)N)NC(=O)[C@@H]2CSSC[C@@H]3NC(=O)[C@H](CO)NC(=O)[C@H]([C@@H](C)O)NC(=O)[C@@H]4CCCN4C(=O)[C@H](C)NC(=O)[C@H](Cc4c[nH]c5ccccc45)NC(=O)[C@H](CC(=O)O)NC(=O)CNC(=O)[C@H](CCCNC(=N)N)NC(=O)CNC(=O)[C@H](CCC(N)=O)NC(=O)[C@@H]4CCCN4C(=O)[C@@H](NC(=O)CNC(=O)C(C)F)CSSC[C@H](NC(=O)CNC(=O)[C@H](C)NC(=O)[C@H](CC(C)C)NC(=O)[C@H](CSSC[C@@H](C(=O)NCC(N)=O)NC(=O)[C@H]([C@@H](C)O)NC(=O)[C@H](CCCNC(=N)N)NC(=O)[C@@H]4CCCN4C1=O)NC(=O)[C@H](CC(=O)O)NC(=O)[C@H](CO)NC(=O)[C@H](CC(=O)O)NC(=O)[C@H](CCC(N)=O)NC(=O)[C@H](CO)NC3=O)C(=O)N[C@@H](C(C)C)C(=O)N2 (stereo partly drawn) [fluorine-18 labelled],,,"nude mice U-87 MG xenograft, spleen","intravenous, 2.5 h",,tissue uptake,0.48 ± 0.1 %ID/g
CNC(C)Cc1ccc2c(c1)OCO2 (stereo not drawn),,,C57BL/6J mouse both sexes,"intraperitoneal, 2 h, as salt",,LD50,119 mg/kg
C[C@H]1CNCCc2ccc(Cl)cc21,,,"Sprague-Dawley rat, male, plasma","subcutaneous, 0.5 mg/kg, 30 min",,plasma concentration,14 ± 0.5 ng/mL
[123I]c1cncc(OC[C@@H]2CCN2)c1,,SPECT,"human, thalamus","intravenous bolus plus infusion, 5.2 mCi",baseline: plasma,tissue/plasma ratio,62.1
CN[C@@H](C)Cc1ccccc1,,,"C57BL/6J mice, male and female","intraperitoneal, 2 h, single dose",,LD50,84.5 mg/kg
Cc1ncc2n1-c1ccc(Cl)cc1C(c1ccccc1F)=NC2,,,"human CYP3A5*3/*3 non-expressers, serum","geometric mean, with: ketoconazole 400 mg",,terminal half-life,8.92 h
N[C@@]1(c2ccccc2Cl)CCC[C@@H](O)C1=O,,,"male CD-1 mice, plasma","intraperitoneal, 5 mg/kg",,dose-normalized Cmax,310 ± 26.1 ng/mL per mg/kg
Cc1ncc2n1-c1ccc(Cl)cc1C(c1ccccc1F)=NC2,,,"healthy human volunteers, plasma","oral, 7.5 mg single dose, arithmetic mean, alone",,AUC,96.2 ng·h/mL
CC(=O)NC[C@H]1CN(c2ccc(N3CCSCC3)c(F)c2)C(=O)O1,,,THP-1 caseum surrogate,"5 µM, 4 h, 37 °C",,fraction unbound,0.217 ± 0.017
CNC(C)C(=O)c1ccc(C)cc1 (stereo not drawn),,,"C57BL/6J mice, male and female","intraperitoneal, 2 h, single dose",,LD50,119 mg/kg
CCC[C@@H](C(=O)c1ccccc1)N1CCCC1,,"heart rate, telemetry",male Sprague-Dawley rat,"subcutaneous, 3 h session mean",,ED50,0.25 mg/kg
CS(=O)(=O)N1CCC(Oc2ccc(CC(=O)N3CCC(N4C(=O)CCc5ccccc54)CC3)c(OC/C=C\[125I])c2)CC1,,"radio-HPLC, measured: free iodide-125",10% ethanol in saline,"45 days, storage stability",,decomposition,15 to 20%
CC(C)C[C@H](CN)CC(=O)O,,,"human, plasma","oral, 150 mg, geometric mean",,AUC,15300 ng·h/mL
N#Cc1ccc(-c2ccc(-c3ccco3)o2)c(F)c1,Salmonella enterica,,TA1535,"10 µM, 48 h, with: sodium azide after pre-exposure",baseline: sodium azide alone,mutant frequency,37%
Cc1ncc(OC[C@@]2(c3cccc(F)c3)C[C@H]2C(=O)Nc2ccc(F)cn2)c(C)n1,,,healthy human,"10 mg, with: itraconazole",,adverse events leading to discontinuation,0%
NNC(=O)c1ccncc1,,,THP-1 caseum surrogate,"5 µM, 4 h, 37 °C",,fraction unbound,> 0.999
CNC(C)Cc1ccc2c(c1)OCO2 (racemic),,,human,"oral, 0.75 mg/kg, mean over session, unit not given",baseline: pre-dose baseline,change in heart rate,8.7
COc1ccc2nc([S@@+]([O-])Cc3ncc(C)c(OC)c3C)[nH]c2c1,,,human healthy,"40 mg, influenza-like illness",,adverse events,0%

# Excerpt of the above:
Structure (SMILES),target or system,test,system,conditions,how to read,measurement,result
CCCCCc1cc(O)c2c(c1)OC(C)(C)[C@@H]1CCC(C)=C[C@@H]21,,catalepsy (ring immobility),"ICR mice, male",intraperitoneal,,ED50,3.85 mg/kg
N[C@@]1(c2ccccc2Cl)C[C@H](O)CCC1=O,,,"female CD-1 mice, plasma","intraperitoneal, 5 mg/kg",,dose-normalized Cmax,505 ± 19 ng/mL per mg/kg
CC(=O)NNC(=O)c1ccncc1,,,rabbit plasma,"5 µM, 4 h, 37 °C",,fraction unbound,89.4 ± 4.7%
CCCC(C(=O)c1ccc(O)c(OC)c1)N1CCCC1 (stereo not drawn),,,human plasma,"750 µg/L, 24 h, High QC, room temperature",baseline: freshly fortified plasma,stability,4.8 % difference
CN1C(=O)CC(=O)N(c2ccccc2)c2cc(Cl)ccc21,,,"CF-1 mouse, brain","intraperitoneal, 17 mg/kg",,Cmax,5.93 ng/mg
